# Assay results gathered from unrelated publications.
# Numbers after ± are the reported error.
# MUSK: Muscle, skeletal receptor tyrosine-protein kinase (MUSK, Homo sapiens, UniProt O15146)
# Chain of UniProt O15146 (whole entry, looked up): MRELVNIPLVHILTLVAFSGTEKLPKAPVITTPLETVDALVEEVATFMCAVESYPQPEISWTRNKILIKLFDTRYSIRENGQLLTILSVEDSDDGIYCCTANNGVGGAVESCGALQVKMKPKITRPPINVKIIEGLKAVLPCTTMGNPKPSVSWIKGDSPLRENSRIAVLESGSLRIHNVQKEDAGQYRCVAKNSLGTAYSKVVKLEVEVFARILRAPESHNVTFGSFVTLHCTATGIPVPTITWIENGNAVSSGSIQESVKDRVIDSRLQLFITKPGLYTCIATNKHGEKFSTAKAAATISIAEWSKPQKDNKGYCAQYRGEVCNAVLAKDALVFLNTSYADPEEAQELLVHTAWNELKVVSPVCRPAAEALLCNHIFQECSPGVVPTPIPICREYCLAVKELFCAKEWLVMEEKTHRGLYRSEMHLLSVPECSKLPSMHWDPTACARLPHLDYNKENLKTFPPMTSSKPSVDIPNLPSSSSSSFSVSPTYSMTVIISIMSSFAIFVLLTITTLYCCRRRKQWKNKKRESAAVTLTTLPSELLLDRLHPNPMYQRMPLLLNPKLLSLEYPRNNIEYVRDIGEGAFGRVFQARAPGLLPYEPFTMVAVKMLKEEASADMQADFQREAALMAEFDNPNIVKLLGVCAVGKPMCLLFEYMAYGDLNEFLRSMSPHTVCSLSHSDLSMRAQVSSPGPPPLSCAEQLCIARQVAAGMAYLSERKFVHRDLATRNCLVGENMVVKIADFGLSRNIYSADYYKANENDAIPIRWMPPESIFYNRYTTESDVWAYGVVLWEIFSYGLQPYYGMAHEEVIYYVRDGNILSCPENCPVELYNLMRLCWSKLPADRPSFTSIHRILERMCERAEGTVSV
# MPO: Myeloperoxidase (MPO, Homo sapiens, UniProt P05164)
# Chain of UniProt P05164 (whole entry, looked up): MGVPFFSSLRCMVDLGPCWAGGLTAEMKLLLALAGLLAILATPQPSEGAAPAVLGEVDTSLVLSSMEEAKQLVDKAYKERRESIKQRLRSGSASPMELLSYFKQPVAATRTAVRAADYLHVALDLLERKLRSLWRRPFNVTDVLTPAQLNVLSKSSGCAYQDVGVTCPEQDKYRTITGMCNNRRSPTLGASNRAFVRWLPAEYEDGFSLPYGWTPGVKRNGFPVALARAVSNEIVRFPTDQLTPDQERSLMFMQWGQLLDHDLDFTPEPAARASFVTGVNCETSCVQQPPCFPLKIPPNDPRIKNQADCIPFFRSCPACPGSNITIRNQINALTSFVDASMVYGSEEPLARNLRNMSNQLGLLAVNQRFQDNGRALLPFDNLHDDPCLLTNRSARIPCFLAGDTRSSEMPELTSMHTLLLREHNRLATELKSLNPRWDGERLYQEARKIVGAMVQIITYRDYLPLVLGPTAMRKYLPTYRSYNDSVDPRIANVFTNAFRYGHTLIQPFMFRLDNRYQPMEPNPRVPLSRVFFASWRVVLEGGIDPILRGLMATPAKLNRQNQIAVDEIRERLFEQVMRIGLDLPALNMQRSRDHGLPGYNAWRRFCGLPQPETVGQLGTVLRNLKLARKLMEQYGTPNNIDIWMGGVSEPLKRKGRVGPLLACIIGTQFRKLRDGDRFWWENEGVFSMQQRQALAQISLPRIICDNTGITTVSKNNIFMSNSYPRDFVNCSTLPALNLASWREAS
# Chain of UniProt P78356 (whole entry, looked up): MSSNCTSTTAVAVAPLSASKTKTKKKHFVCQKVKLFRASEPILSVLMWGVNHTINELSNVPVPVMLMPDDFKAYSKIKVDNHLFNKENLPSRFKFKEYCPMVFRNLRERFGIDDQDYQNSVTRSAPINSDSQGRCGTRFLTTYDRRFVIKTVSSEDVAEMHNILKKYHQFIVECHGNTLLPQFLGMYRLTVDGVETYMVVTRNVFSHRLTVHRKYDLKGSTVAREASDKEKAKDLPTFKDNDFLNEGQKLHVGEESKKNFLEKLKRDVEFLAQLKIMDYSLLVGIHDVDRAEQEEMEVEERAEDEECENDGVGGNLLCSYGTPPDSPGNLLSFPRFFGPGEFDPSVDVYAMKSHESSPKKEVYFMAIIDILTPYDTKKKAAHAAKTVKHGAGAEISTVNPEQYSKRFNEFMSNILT
# Chain of UniProt P49760 (whole entry, looked up): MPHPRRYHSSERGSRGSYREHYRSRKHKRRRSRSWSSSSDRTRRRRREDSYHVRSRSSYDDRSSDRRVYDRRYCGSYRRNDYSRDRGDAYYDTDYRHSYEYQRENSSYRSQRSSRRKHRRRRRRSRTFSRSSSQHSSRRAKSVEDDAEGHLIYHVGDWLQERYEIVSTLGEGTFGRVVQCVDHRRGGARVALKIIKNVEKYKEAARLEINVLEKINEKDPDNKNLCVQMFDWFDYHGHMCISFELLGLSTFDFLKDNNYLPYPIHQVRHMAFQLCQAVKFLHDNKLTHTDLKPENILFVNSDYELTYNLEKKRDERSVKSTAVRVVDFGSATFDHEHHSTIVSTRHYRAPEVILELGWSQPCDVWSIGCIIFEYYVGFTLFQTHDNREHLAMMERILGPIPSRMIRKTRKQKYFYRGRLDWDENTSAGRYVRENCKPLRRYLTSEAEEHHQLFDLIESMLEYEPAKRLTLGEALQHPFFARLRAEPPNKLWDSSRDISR
# Chain of UniProt P51451 (whole entry, looked up): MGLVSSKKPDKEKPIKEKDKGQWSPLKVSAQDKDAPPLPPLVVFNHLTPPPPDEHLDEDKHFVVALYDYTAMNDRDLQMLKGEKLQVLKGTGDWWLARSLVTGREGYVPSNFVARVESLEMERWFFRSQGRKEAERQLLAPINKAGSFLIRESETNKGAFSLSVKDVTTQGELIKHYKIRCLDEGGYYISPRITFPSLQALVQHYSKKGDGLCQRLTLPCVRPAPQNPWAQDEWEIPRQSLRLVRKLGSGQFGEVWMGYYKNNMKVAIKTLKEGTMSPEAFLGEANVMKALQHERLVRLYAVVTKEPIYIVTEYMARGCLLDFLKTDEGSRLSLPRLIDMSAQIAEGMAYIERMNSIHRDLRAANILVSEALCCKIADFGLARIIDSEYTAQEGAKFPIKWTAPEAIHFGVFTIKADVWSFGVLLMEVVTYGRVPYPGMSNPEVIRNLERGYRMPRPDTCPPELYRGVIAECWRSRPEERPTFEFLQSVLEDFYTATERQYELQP
# Chain of UniProt P42685 (whole entry, looked up): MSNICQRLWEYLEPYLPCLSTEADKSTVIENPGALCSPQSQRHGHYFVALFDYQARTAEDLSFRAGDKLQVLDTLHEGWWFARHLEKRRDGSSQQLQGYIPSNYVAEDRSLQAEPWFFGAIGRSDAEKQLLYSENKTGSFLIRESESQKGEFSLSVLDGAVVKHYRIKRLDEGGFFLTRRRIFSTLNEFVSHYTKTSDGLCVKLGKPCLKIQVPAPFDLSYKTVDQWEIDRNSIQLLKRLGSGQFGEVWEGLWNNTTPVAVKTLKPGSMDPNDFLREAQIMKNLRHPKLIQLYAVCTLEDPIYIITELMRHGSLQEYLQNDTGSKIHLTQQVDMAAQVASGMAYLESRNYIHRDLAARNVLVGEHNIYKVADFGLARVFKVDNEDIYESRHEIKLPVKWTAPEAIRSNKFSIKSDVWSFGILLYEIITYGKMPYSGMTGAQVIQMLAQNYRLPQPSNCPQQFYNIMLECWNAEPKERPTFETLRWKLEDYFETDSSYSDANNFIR
# Chain of UniProt O60331 (whole entry, looked up): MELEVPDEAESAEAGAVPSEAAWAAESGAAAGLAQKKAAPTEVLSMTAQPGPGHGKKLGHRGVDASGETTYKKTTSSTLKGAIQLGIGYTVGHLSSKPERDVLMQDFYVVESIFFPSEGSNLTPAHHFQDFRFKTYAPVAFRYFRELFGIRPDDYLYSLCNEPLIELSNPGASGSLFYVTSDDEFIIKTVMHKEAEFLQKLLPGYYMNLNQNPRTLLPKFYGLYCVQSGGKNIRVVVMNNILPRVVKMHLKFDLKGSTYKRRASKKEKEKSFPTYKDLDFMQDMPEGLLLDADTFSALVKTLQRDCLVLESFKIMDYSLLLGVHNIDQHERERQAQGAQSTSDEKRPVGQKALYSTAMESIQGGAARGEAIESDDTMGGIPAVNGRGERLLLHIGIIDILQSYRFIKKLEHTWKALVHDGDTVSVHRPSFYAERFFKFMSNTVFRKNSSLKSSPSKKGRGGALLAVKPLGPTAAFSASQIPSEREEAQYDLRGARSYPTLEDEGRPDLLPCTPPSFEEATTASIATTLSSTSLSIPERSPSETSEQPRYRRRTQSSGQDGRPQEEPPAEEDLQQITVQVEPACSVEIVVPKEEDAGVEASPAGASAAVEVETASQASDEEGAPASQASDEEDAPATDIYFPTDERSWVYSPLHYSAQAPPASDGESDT
# Chain of UniProt Q13976 (whole entry, looked up): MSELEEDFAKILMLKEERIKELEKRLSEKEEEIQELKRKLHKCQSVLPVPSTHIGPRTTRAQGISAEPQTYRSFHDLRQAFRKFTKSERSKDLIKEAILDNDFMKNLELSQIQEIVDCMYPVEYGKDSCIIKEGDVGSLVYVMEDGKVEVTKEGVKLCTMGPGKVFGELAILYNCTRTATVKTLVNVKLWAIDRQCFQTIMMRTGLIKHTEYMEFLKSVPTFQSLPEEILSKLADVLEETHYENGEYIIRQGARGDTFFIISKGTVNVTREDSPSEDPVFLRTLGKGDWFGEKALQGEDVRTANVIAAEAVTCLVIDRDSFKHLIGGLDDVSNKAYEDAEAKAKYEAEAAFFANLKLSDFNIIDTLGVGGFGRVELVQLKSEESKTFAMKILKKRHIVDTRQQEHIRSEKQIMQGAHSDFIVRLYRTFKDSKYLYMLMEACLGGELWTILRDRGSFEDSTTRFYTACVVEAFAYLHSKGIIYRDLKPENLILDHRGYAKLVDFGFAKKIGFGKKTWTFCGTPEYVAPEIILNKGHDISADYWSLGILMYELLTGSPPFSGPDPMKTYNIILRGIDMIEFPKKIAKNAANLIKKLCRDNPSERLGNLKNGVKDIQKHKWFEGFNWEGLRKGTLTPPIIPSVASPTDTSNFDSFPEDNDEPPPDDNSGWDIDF
Compound,target,test,conditions,scale,remaining activity
Cc1ccc(NC(=O)c2ccc(C)c(C(F)(F)F)c2)cc1C#Cc1nn(C2CCC(O)CC2)c2ncnc(N)c12 (stereo not drawn),"casein kinase 1, yeast",,"10 µM, together with: 10 µM ATP",,86%
COc1ccc(F)cc1C(=O)NCc1ccc(-c2nn([C@@H](C)C(F)(F)F)c(N)c2C(N)=O)cc1,"Inhibitor of nuclear factor kappa-B kinase subunit epsilon (IKBKE, Homo sapiens, UniProt Q14164)","kinase activity, inhibitor, HotSpot radiometric","1000 nM, together with: ATP at Km",,97.6 ± 3%
COc1cc(-c2cncc3c2CN(C)Cc2cc(N4CCNCC4)ccc2-3)cc(OC)c1OC,"Transient receptor potential cation channel subfamily M member 7 (TRPM7, Homo sapiens, UniProt Q96QT4)",enzyme activity,"1 µM, together with: 10 µM ATP",relative to: DMSO,107%
COc1cc(F)ccc1-c1ncnc(Nc2cccc(C[S@](C)(=N)=O)c2)n1,MUSK,kinase activity,"10 µM, together with: 10 µM ATP",,53%
FC(F)c1nc2ccccc2n1-c1nc(N2CCOCC2)nc(N2CCOCC2)n1,AMPK,enzyme activity,10 µM,,92%
O=C(O)c1ccc(Nc2ncc3c(n2)-c2ccc(Cl)cc2C(c2c(F)cccc2F)=NC3)cc1,human HIPK2(h),kinase activity,1 µM,,112%
C=CC(=O)N1CCC[C@@H](n2nc(-c3ccc(Oc4ccccc4)cc3)c3c(N)ncnc32)C1,"Tyrosine-protein kinase FRK (FRK, Homo sapiens, UniProt P42685)",,1 µM,,178%
CC(C)OCCn1c(=S)[nH]c(=O)c2[nH]ccc21,MPO,"H2O2 consumption, H2O2-specific electrode",10 µM,relative to: control,7.97%
COc1cc(Nc2cnc(C#N)c(O[C@H](C)CN(C)C)n2)ncc1-c1cnn(C)c1,AMPK,radiometric,10 µM,,14%
CC#CC(=O)N1CCC[C@H]1c1nc(-c2ccc(C(=O)Nc3ccccn3)cc2)c2c(N)nccn12,"Tyrosine-protein kinase Blk (BLK, Homo sapiens, UniProt P51451)","kinase activity, inhibitor, HotSpot radiometric","100 nM, together with: ATP 10 µM",,95 ± 1.2%
O=C(NC1CCC1)c1ccc2nc(-c3cccc(NS(=O)(=O)NCCN4CCCCC4)c3)cn2c1,"Phosphatidylinositol 5-phosphate 4-kinase type-2 beta (PIP4K2B, Homo sapiens, UniProt P78356)",enzyme activity,10 µM,,100%
COc1cc(N2CCN(C)CC2)ccc1Nc1nc(N)n(C(=O)NCc2c(Cl)cccc2Cl)n1,"Tyrosine-protein kinase JAK2 (JAK2, Homo sapiens, UniProt O60674)",enzyme activity,10 µM,relative to: control,13%
CC(C)C(=O)Nc1n[nH]c2cc(-c3cccc(NS(=O)(=O)C4CC4)c3)ccc12,"Phosphatidylinositol 4-phosphate 5-kinase type-1 gamma (PIP5K1C, Homo sapiens, UniProt O60331)",ADP-Glo,508 pM,relative to: DMSO,100%
CC(C)(O)[C@H]1CC[C@H](Nc2ccc3ncc(-c4cccc(C(F)(F)F)c4)n3n2)CC1,"cGMP-dependent protein kinase 1, isoform beta (PRKG1, Homo sapiens, UniProt Q13976)","enzyme activity, inhibitor","1 µM, together with: 10 µM ATP",relative to: DMSO,101%
Cc1cc(Nc2cc(N3CCN(C)CC3)nc(Sc3ccc(NC(=O)C4CC4)cc3)n2)[nH]n1,MUSK,"kinase activity, KinaseProfiler","0.03 µM, species human",relative to: control,91%
Cc1cc(NC(=O)c2cccc(NC(=O)/C=C/CN(C)C)c2)ccc1Nc1nccc(-c2cccnc2)n1,"Mitogen-activated protein kinase 8 (MAPK8, Homo sapiens, UniProt P45983)","enzyme activity, inhibitor","44.44 µM, 18 h, unit not given, together with: GSH 10 mM pre-incubation",relative to: vehicle,0.108
COc1ccc(Cl)cc1-c1cc(=O)[nH]c(=S)n1CC(N)=O,MPO,,"2.5 µM, 0.1 h",,23.7%
O=C1NC(=O)/C(=C/c2ccc(-c3ccc(F)cc3O)o2)S1,"Dual specificity protein kinase CLK2 (CLK2, Homo sapiens, UniProt P49760)",enzyme activity,10 µM,,16%
C[C@H]1[C@H](OC(=O)CCC(=O)O)O[C@@H]2O[C@@]3(C)CC[C@H]4[C@H](C)CC[C@@H]1[C@@]24OO3,"Non-structural polyprotein pORF1, helicase domain (Hepatitis E virus genotype 1, UniProt P33424)","ATPase activity, inhibitor, colorimetric","19.5 µM, preincubation 30 min, together with: ATP 100 µM",relative to: untreated,75.3%
COc1cc(Nc2ncc3c(n2)-c2ccc(Cl)cc2C(c2c(F)cccc2OC)=NC3)ccc1C(=O)O,SGK3 (SGKL),"inhibitor, biochemical kinase",1 µM,,104%
NC/C(=C\F)COc1cccc(Cn2c(=S)[nH]c(=O)c3[nH]cnc32)c1,"Peroxidasin homolog (PXDN, Homo sapiens, UniProt Q92626)",Amplex UltraRed,"5 µM, mean of replicates",relative to: control,69.5%

# A few entries again:
Compound,target,test,conditions,scale,remaining activity
CC(C)C(=O)Nc1n[nH]c2cc(-c3cccc(NS(=O)(=O)C4CC4)c3)ccc12,"Phosphatidylinositol 4-phosphate 5-kinase type-1 gamma (PIP5K1C, Homo sapiens, UniProt O60331)",ADP-Glo,508 pM,relative to: DMSO,100%
